Measurements collected from several papers.
± marks the error that the study gave.

SMILES | assay | system | setting | endpoint | result
COCCOc1nc(N)c2[nH]c(=O)n(Cc3ccc(C(=O)O)cc3)c2n1 | – | – | unconjugated | maximum solubility | 100 µM
O=C(O)CCN1C(=O)CSC1=S | – | excised Bama miniature pig skin | 10 mM, 24 h, 32 °C, Franz cell, donor 30% ethanol saline | maximum flux | 0.303 ± 0.005 µmol/cm²/h
CC(C)C(=O)O[C@@H](C)[C@H](O)[C@@H](Cc1ccccc1)C(=O)O | – | sterile natural water, irradiated | photolysis product | maximum share of applied radioactivity | 16.2 % AR
COc1ccc(C(=O)O)cc1NC(=O)/C=C/c1ccc(-c2ccccc2C)cc1 | – | sheep erythrocytes | 1 h, pH 7.5 | maximum haemolysis | 2.73%
O=C1CC[C@H](N2Cc3cc(N4CCN(CC5CCN(c6ccc([C@@H]7c8ccc(O)cc8CC[C@@H]7c7ccccc7)cc6)CC5)CC4)ccc3C2=O)C(=O)N1 | – | HBSS buffer | – | maximum achievable concentration | 40 µM
C[C@H](Cn1cnc2c(N)ncnc21)OCP(=O)(O)O | – | Macaca nemestrina, plasma | intravenous, dose not given, time-averaged | maximum DcNP-dissociated fraction | 3.2%
CN1CCN=C1c1ccc(NC(=O)c2ccc(C(=O)Nc3ccc(C4=NCCN4C)cc3)cc2)cc1 | – | sheep erythrocytes | 1 h, pH 7.5 | maximum haemolysis | 2.2%
C[C@H]1C=C(Cc2ccccc2)C(=O)O1 | – | sterile natural water, irradiated | photolysis product | maximum share of applied radioactivity | 69.3 % AR
CCOc1cccc(C(=O)Nc2ccc(-c3nc4ccccc4[nH]3)cc2)c1 | – | sheep erythrocytes | 1 h, pH 7.5 | maximum haemolysis | 40.6%
Cc1cc(C#N)cc(C)c1Oc1nc(Nc2ccc(C#N)cc2)nc(N)c1Br | solvent-shift UV | FaSSIF with 0.05% PVP-VA | – | maximum supersaturated concentration | 80 µg/mL
Cc1cc(C)c2c(=O)cc(C(=O)Nc3nc4ccc(F)cc4s3)oc2c1 | – | sheep erythrocytes | 1 h, pH 7.5 | maximum haemolysis | 2.22%
CC[C@H](C)[C@@H]1NC(=O)[C@H](CCCNC(=N)N)NC(=O)[C@H](CC(=O)O)NC(=O)[C@H](CC(C)C)NC(=O)[C@H](CCCCN)NC(=O)[C@H](CC(C)C)NC(=O)CNC(=O)[C@H](Cc2ccccc2)NC(=O)[C@@H](NC(=O)CNC(=O)[C@H](CCCCN)NC(=O)[C@H](CO)NC(=O)[C@H](CC(C)C)NC(=O)CNC(=O)[C@H](CCCCN)NC(=O)[C@H](CCCCN)NC(=O)[C@H](CC(N)=O)NC(=O)[C@H](C)NC(=O)CNC(=O)[C@H](CCCCN)NC(=O)[C@H](Cc2ccc(O)cc2)NC(=O)[C@H](CCCCN)NC(=O)[C@H](CCCNC(=N)N)NC(=O)[C@H](C)NC(=O)[C@H](CC(N)=O)NC(=O)[C@@H]2CCCN2C(=O)[C@H](Cc2c[nH]cn2)NC(=O)[C@H](CCC(=O)O)NC(=O)[C@H](CCC(N)=O)NC(=O)CNC(=O)[C@@H]2CCCN2)CSSC[C@@H](C(=O)O)NC(=O)CNC(=O)[C@H](CC(C)C)NC(=O)CNC(=O)[C@H](CO)NC(=O)[C@H](CCSC)NC(=O)[C@H](CO)NC(=O)CNC1=O | – | human | concentration not given | maximum DBP decrease | -2 mmHg
CCCCNC(=O)NS(=O)(=O)c1cccs1 | – | sheep erythrocytes | 1 h, pH 7.5 | maximum haemolysis | 7.4%
C=CC(=O)NC1CCN(c2ncc3ncnc(Nc4ccc(Oc5ccc6c(c5)ncn6C)c(C)c4)c3n2)CC1 | – | tiny-TIM gastrointestinal model | 30 mg, fasted state | maximum bioaccessibility | 26 ± 2.7 % recovery
Cc1c2oc3c(C)ccc(C(=O)N[C@@H]4C(=O)N[C@H](C(C)C)C(=O)N5CCC[C@H]5C(=O)N(C)CC(=O)N(C)[C@@H](C(C)C)C(=O)O[C@@H]4C)c3nc-2c(C(=O)N[C@@H]2C(=O)N[C@H](C(C)C)C(=O)N3CCC[C@H]3C(=O)N(C)CC(=O)N(C)[C@@H](C(C)C)C(=O)O[C@@H]2C)c(N)c1=O | LC-MS | children with cancer, plasma | dose not given, 8 h | maximum plasma concentration | 6.6 µg/L

Some of these lines once more:
SMILES | assay | system | setting | endpoint | result
CC[C@H](C)[C@@H]1NC(=O)[C@H](CCCNC(=N)N)NC(=O)[C@H](CC(=O)O)NC(=O)[C@H](CC(C)C)NC(=O)[C@H](CCCCN)NC(=O)[C@H](CC(C)C)NC(=O)CNC(=O)[C@H](Cc2ccccc2)NC(=O)[C@@H](NC(=O)CNC(=O)[C@H](CCCCN)NC(=O)[C@H](CO)NC(=O)[C@H](CC(C)C)NC(=O)CNC(=O)[C@H](CCCCN)NC(=O)[C@H](CCCCN)NC(=O)[C@H](CC(N)=O)NC(=O)[C@H](C)NC(=O)CNC(=O)[C@H](CCCCN)NC(=O)[C@H](Cc2ccc(O)cc2)NC(=O)[C@H](CCCCN)NC(=O)[C@H](CCCNC(=N)N)NC(=O)[C@H](C)NC(=O)[C@H](CC(N)=O)NC(=O)[C@@H]2CCCN2C(=O)[C@H](Cc2c[nH]cn2)NC(=O)[C@H](CCC(=O)O)NC(=O)[C@H](CCC(N)=O)NC(=O)CNC(=O)[C@@H]2CCCN2)CSSC[C@@H](C(=O)O)NC(=O)CNC(=O)[C@H](CC(C)C)NC(=O)CNC(=O)[C@H](CO)NC(=O)[C@H](CCSC)NC(=O)[C@H](CO)NC(=O)CNC1=O | – | human | concentration not given | maximum DBP decrease | -2 mmHg
